Results from different studies.
Values joined by “and” are separate records of one study, mostly repeats; a detail may differ. Numbers after ± are the reported error.
Target: Alpha-1A adrenergic receptor (ADRA1A, Homo sapiens, UniProt P35348)

C/C(=N\OCCCN1CCCCC1)c1ccc(C(F)(F)F)cc1  activation (agonist, IP-One; 10 µM): 2.43%
CCCO[C@H]1[C@H](O)[C@@H](N)[C@@H](O[C@H]2[C@H](O[C@@H]3O[C@H](CO)[C@@H](O[C@H]4O[C@@H](CN)[C@@H](O)[C@H](O)[C@H]4N)[C@H]3O)[C@@H](O)[C@H](N)C[C@@H]2N)O[C@@H]1CO  specific binding (radioligand binding; 10 µM, 1% DMSO): 0%
C[C@@H]1COCCN1c1nc(NCc2cccnc2C(F)(F)F)c2cccnc2n1  IC50 (binding; CEREP panel): > 100 µM
O=C(O)c1ccc(-c2nc(-c3ccccc3Cl)c3sccn23)cc1  specific binding (radioligand binding; 10 µM, together with: WB4101; relative to: control): 88.6% and 102%
CCN(CC)CCOc1ccc(-c2nnn(Cc3ccc(OC)cc3)c2N)cc1  inhibition (radioligand binding; HEK293; 10 µM, safety profiling): 19.5%
N[C@H](C(=O)N1CCCC1)C1CCN(c2nccc3c(-c4ncc(Cl)cc4Cl)cccc23)CC1  inhibition (functional response, antagonist; 10 µM): 37%
CCc1cc2c3c(c1OC)-c1cc4c(cc1CC3N(C)CC2)OCO4 (racemic)  apparent Kb (calcium flux, antagonist, FLIPR; CHO-K1; together with: norepinephrine): 275 ± 12 nM
Cc1ccc2oc(=O)cc(CN3CCCCC3)c2c1  agonist activity (intracellular Ca2+ mobilization, agonist; COS-7; 500 µM; relative to: 3 µM ionomycin): 6.32 ± 3.54%
CCN(CC)C(=O)[C@@H]1C=C2c3cccc4c3c(cn4C(=O)c3ccco3)C[C@H]2N(C)C1  inhibition (radioligand binding; 10 µM): < 50%
Cc1cc(Nc2nc(C[C@@]3(C(=O)O)CCN(Cc4cccc(Cl)c4F)[C@H](C)C3)cc(C)c2F)[nH]n1  inhibition (inhibitor; 10 µM): -1.06%
CCc1nnc(-c2c(OC)cc(-c3cnc4cc(-c5cnn(C)c5)ccn34)cc2OC)o1  remaining binding (antagonist radioligand, radioligand binding; 10 µM, SafetyScreen44 alpha 1 A replicate 2; lower = stronger displacement): 63.2%
COc1c(O)c(Cl)c2c3c1-c1cc4c(cc1CC3N(C)CC2)OCO4 (racemic)  apparent Kb (calcium flux, antagonist, FLIPR; CHO-K1; together with: norepinephrine): 1280 nM
Cc1cc(-c2ccc3ccccc3c2)nnc1NCCN1CCN(C)CC1  antagonist activity (antagonist; concentration not given): negative
CS(C)(=O)=Nc1ccc(-c2ccc(-c3nc4cc(O[C@@H]5CO[C@H]6[C@@H]5OC[C@H]6O)[nH]c4cc3F)cc2)cc1  inhibition (calcium signal, antagonist; 10 µM): 38%
CCOC(=O)[C@](CC)(CCCSCCOCCOCCNC(=O)c1ccc(-c2c3ccc(=N)c(S(=O)(=O)O)c-3oc3c(S(=O)(=O)O)c(N)ccc23)c(C(=O)O)c1)NC(=O)c1ccc(C2CC2)c(Cc2ccc(F)cc2)n1  inhibition (ligand displacement, radioligand; 10 µM): 0%

Excerpt of the above:
CCN(CC)C(=O)[C@@H]1C=C2c3cccc4c3c(cn4C(=O)c3ccco3)C[C@H]2N(C)C1  inhibition (radioligand binding; 10 µM): < 50%
